# Assay results collected from several papers.
# Each line is one published result; not all experiments were run side by side. Values joined by “and” are separate records of one study, mostly repeats; a detail may differ. pIC50: −log10 of the molar value.
# Organism: Staphylococcus aureus
SMILES,test,system,conditions,how to read,endpoint,value
COc1ccc(-c2[nH]c3ccccc3c2C[C@H]2NC(=O)[C@@H](CO)NC(=O)[C@@H](C(C)C)NC(=O)[C@H](Cc3ccccc3)NC(=O)[C@@H](C(C)C)NC(=O)[C@@H](C)NC(=O)[C@H](CO)NC2=O)c(OC)c1,broth dilution,,,,MIC90,> 50 µM
CC[C@H](C)[C@@H]1NC(=O)[C@@H](CCCNC(=N)N)NC(=O)[C@@H](NC(=O)[C@@H](CC(C)C)NC(=O)[C@H](C)NC(=O)[C@H](C)NC(=O)[C@@H]2CCCN2C(=O)[C@@H](CC(C)C)NC(=O)[C@@H](NC(=O)[C@@H](CCCNC(=N)N)NC(=O)[C@@H](CC(C)C)NC(=O)[C@@H](CC(C)C)NC(=O)[C@@H](NC(=O)[C@@H](CCCNC(=N)N)NC(=O)[C@@H](CC(C)C)NC(=O)[C@@H](NC(=O)[C@@H](NC(=O)CNC(=O)[C@@H](CC(C)C)NC(=O)[C@@H](N)Cc2ccccc2)[C@@H](C)O)C(C)C)C(C)C)C(C)C)CSSC[C@@H](C(=O)O)NC(=O)[C@@H](CCCNC(=N)N)NC(=O)[C@@H](CCCNC(=N)N)NC(=O)[C@H](Cc2ccccc2)NC1=O,decreased,MRSA NCTC 12493,1 µM or above,,intracellular ATP level,decreased
CCc1ccn2c(C(=O)NCc3ccc(C)cc3)c(C)nc2c1,microbial growth,SG511,2 mM,,inhibition zone,0 mm
Oc1c(Br)cc(Br)c2nc3cc(F)c(F)cc3nc12,"biofilm eradication, Calgary biofilm device","MRSA BAA-1707, BAA-44",,,MBEC,25 µM
c1ccc(CN2CCOCCOCCN(CCCCCCCCCCN3CCOCCOCCN(CCCCCCCCCCN4CCOCCOCCN(Cc5ccccc5)CCOCCOCC4)CCOCCOCC3)CCOCCOCC2)cc1,"ethidium bromide activity, efflux inhibitor",1199B NorA overexpressing,"half MIC, with: ethidium bromide",baseline: ethidium bromide alone,fold enhancement,16 fold
CCc1ccn2c(C(=O)N(C)C)c(C)nc2c1,microbial growth,SG511,"2 mM, 20 h",,inhibition zone,0 mm
C[C@H](N)[C@@H](CCCCCCCCCCCCCCC(=O)CCCCCCC[C@@H](O)[C@@H](C)N)O[C@@H]1O[C@H](CO)[C@H](O)[C@H](O)[C@H]1O,"microbial growth, resazurin",ATCC12600,50 µM,,inhibition,98%
CC[C@H](C)[C@@H]1NC(=O)[C@H](CO)NC(=O)[C@H](CCCCN)NC(=O)[C@@H]2CSSC[C@@H](C(=O)N[C@@H](Cc3ccc(O)cc3)C(N)=O)NC(=O)[C@H](CCCCN)NC(=O)[C@@H]3CSSC[C@H](NC(=O)[C@H](CCCNC(=N)N)NC(=O)[C@H](CC(C)C)NC(=O)[C@H](CC(=O)O)NC(=O)[C@H](CC(=O)O)NC(=O)[C@H](CCC(=O)O)NC(=O)[C@H](CC(N)=O)NC(=O)[C@H](Cc4c[nH]c5ccccc45)NC(=O)C(C)(CC)NC(=O)CNC(=O)[C@H](CC(N)=O)NC(=O)[C@@H](NC(=O)CNC(=O)[C@H](Cc4ccccc4)NC(=O)CN)CSSC[C@H](NC(=O)[C@H](Cc4ccc(O)cc4)NC(=O)CNC(=O)CNC(=O)[C@H](CCCCN)NC(=O)[C@H](Cc4ccc(O)cc4)NC(=O)[C@H]4CCCN4C(=O)[C@@H]4CCCN4C1=O)C(=O)N[C@@H](C)C(=O)N[C@@H](CCCCN)C(=O)N1CCC[C@@H]1C(=O)NCC(=O)N[C@@H](Cc1ccccc1)C(=O)N[C@@H](C(C)C)C(=O)N3)C(=O)N[C@@H](Cc1c[nH]cn1)C(=O)N[C@@H](CC(N)=O)C(=O)N[C@@H](Cc1c[nH]cn1)C(=O)N2 (stereo partly shown),,USA300 MRSA,24 h,,MBC,4 µM
OB(O)c1ccc(C(F)(F)F)s1,crystal violet,USA300 wild type,50 µM,baseline: wild type untreated,biofilm formation,32.2% and 29.7% and 36.5%
CC[C@H](C)[C@@H]1NC(=O)[C@H](CO)NC(=O)C(C)(CCCCN)NC(=O)[C@@H]2CSSC[C@@H](C(=O)N[C@@H](Cc3ccc(O)cc3)C(N)=O)NC(=O)[C@H](CCCCN)NC(=O)[C@@H]3CSSC[C@H](NC(=O)[C@H](CCCNC(=N)N)NC(=O)C(C)(CC(C)C)NC(=O)[C@H](CC(=O)O)NC(=O)[C@H](CC(=O)O)NC(=O)[C@H](CCC(=O)O)NC(=O)[C@H](CC(N)=O)NC(=O)[C@H](Cc4c[nH]c5ccccc45)NC(=O)C(C)(CC)NC(=O)CNC(=O)[C@H](CC(N)=O)NC(=O)[C@@H](NC(=O)CNC(=O)[C@H](Cc4ccccc4)NC(=O)CN)CSSC[C@H](NC(=O)[C@H](Cc4ccc(O)cc4)NC(=O)CNC(=O)CNC(=O)[C@H](CCCCN)NC(=O)[C@H](Cc4ccc(O)cc4)NC(=O)[C@H]4CCCN4C(=O)[C@@H]4CCCN4C1=O)C(=O)N[C@@H](C)C(=O)N[C@@H](CCCCN)C(=O)N1CCC[C@@H]1C(=O)NCC(=O)N[C@@H](Cc1ccccc1)C(=O)N[C@@H](C(C)C)C(=O)N3)C(=O)N[C@@H](Cc1c[nH]cn1)C(=O)NC(C)(C)C(=O)N[C@@H](Cc1c[nH]cn1)C(=O)N2 (stereo partly shown),,467,"24 h, 37 °C, 99.9% killing",,MBC,16 µM
CN[C@H](CC(C)C)C(=O)N[C@H]1C(=O)N[C@@H](CC(N)=O)C(=O)N[C@H]2C(=N)N[C@H]3C(=O)N[C@H](C(=O)N[C@H](C(=O)NCCCNC(=N)N)c4cc(O)cc(O)c4-c4cc3ccc4O)[C@H](O)c3ccc(c(Cl)c3)Oc3cc2cc(c3O[C@@H]2O[C@H](CO)[C@@H](O)[C@H](O)[C@H]2O[C@H]2C[C@](C)(NCc3ccc(-c4ccc(Cl)cc4)cc3)[C@H](O)[C@H](C)O2)Oc2ccc(cc2Cl)[C@H]1O,,"VRS2 VanA VRSA, mouse neutropenic thigh infection, thigh","subcutaneous, 50 or 100 mg/kg once at 2 h, 26 h",,reduction of bacterial count,≥ 2 log10 CFU/g
N=C(N)NCCC[C@H](NC(=O)[C@H](CCCNC(=N)N)NC(=O)[C@H](CCCNC(=N)N)NC(=O)[C@H](CCC(N)=O)NC(=O)[C@H](CCCNC(=N)N)NC(=O)[C@H](CCCNC(=N)N)NC(=O)[C@H](CCCCN)NC(=O)[C@H](CCCCN)NC(=O)[C@H](CCCNC(=N)N)NC(=O)CNC(=O)[C@H](Cc1ccc(O)cc1)NC(=O)[C@H](Cc1ccccc1)NC(=O)[C@H](Cc1ccccc1)NC(=O)[C@H](Cc1ccccc1)NC(=O)OCC1c2ccccc2-c2ccccc21)C(=O)O,"ELISA, measured: TNF-α, IL-1β, IL-6","RAW264.7 29213, cell supernatant","32 µM, 4 h",,pro-inflammatory cytokine levels,decreased
CCCNC(=O)[C@H](Cc1ccc(O)cc1)NC(=O)[C@@H]1Cc2ccc(O)c(c2)-c2cc(ccc2O)[C@@H](NC(=O)[C@@H](NC(=O)[C@H](CC(N)=O)NC(=O)[C@@H](Cc2ccc(O)cc2)NC(=O)[C@@H](CC(C)C)NC)c2ccc(O)cc2)C(=O)N1,bacterial growth,,,,pIC50,< 4.40
CC(C)[C@H]1NC(=O)[C@H](Cc2ccccc2)NC(=O)[C@@H](C(C)C)NC(=O)[C@@H](C)NC(=O)[C@H](CO)NC(=O)[C@@H](Cc2c(-c3ccc(-c4ccc(-c5ccccc5)cc4)cc3)[nH]c3ccccc23)NC(=O)[C@@H](CO)NC1=O,broth dilution,,,,MIC90,> 50 µM
CCCNC(=O)[C@H](Cc1ccc(O)cc1)NC(=O)[C@H](Cc1ccc(O)cc1)NC(=O)[C@H](NC(=O)[C@@H](NC(=O)[C@H](CC(N)=O)NC(=O)[C@@H](Cc1ccc(O)cc1)NC(=O)[C@@H](CC(C)C)NC)c1ccc(O)cc1)c1ccc(O)cc1,bacterial growth,,,,pIC50,< 4.40
CC(C)[C@H]1NC(=O)[C@H](Cc2ccccc2)NC(=O)[C@@H](C(C)C)NC(=O)[C@@H](C)NC(=O)[C@H](CO)NC(=O)[C@@H](Cc2c(-c3ccc(-c4ccccc4)c4ccccc34)[nH]c3ccccc23)NC(=O)[C@@H](CO)NC1=O,broth dilution,,,,MIC90,> 50 µM
CC[C@H](C)[C@H](NC(=O)[C@H](CC(C)C)NC(=O)[C@H](CC(=O)O)NC(=O)[C@H](CCCNC(=N)N)NC(=O)[C@H](Cc1c[nH]c2ccccc12)NC(=O)[C@@H](N)CC(C)C)C(=O)N[C@@H](CS)C(=O)N[C@@H](CC(C)C)C(=O)N[C@@H](CS)C(=O)N[C@@H](CCCNC(=N)N)C(=O)N[C@@H](CC(N)=O)C(=O)N[C@@H](CCCNC(=N)N)C(=O)N[C@@H](CCCNC(=N)N)C(=O)N[C@@H](CS)C(=O)N[C@@H](CC(N)=O)C(=O)N[C@@H](CCCNC(=N)N)C(=O)NCC(=O)N[C@@H](CCC(N)=O)C(=O)N[C@@H](CC(C)C)C(=O)N[C@@H](Cc1ccccc1)C(=O)N1CCC[C@H]1C(=O)NCC(=O)N[C@@H](Cc1c[nH]c2ccccc12)C(=O)N[C@@H](CS)C(=O)N1CCC[C@H]1C(=O)NCC(=O)N[C@@H](Cc1c[nH]c2ccccc12)C(=O)N[C@@H](Cc1c[nH]c2ccccc12)C(=O)N[C@@H](CC(C)C)C(=O)N[C@@H](CCCNC(=N)N)C(=O)N[C@@H](CS)C(=O)N[C@@H](CS)C(=O)N[C@@H](CCCNC(=N)N)C(=O)N[C@@H](CCCNC(=N)N)C(N)=O,colony count,,"30 µg/mL, 2 h, 37 °C, pretreated pepsin gastric fluid, with: pepsin 1 mg/mL",,bactericidal rate,~95%
CC(C)C[C@H](NC(=O)[C@H](CCN)NC(=O)[C@H](CCN)NC(=O)[C@@H](Cc1ccccc1)NC(=O)[C@H](CC(C)C)NC(=O)[C@H](CCN)NC(=O)[C@H](CCN)NC(=O)[C@@H](CCN)NC(=O)[C@@H](N)CS)C(N)=O,,ATCC 6538,"24 h, 37 °C",,MBC,128 µM
COc1cc(OC)cc(B(O)O)c1,crystal violet,USA300 wild type,5 µM,baseline: wild type untreated,biofilm formation,51.4% and 55.9% and 55.4%

# A few entries again:
SMILES,test,system,conditions,how to read,endpoint,value
CN[C@H](CC(C)C)C(=O)N[C@H]1C(=O)N[C@@H](CC(N)=O)C(=O)N[C@H]2C(=N)N[C@H]3C(=O)N[C@H](C(=O)N[C@H](C(=O)NCCCNC(=N)N)c4cc(O)cc(O)c4-c4cc3ccc4O)[C@H](O)c3ccc(c(Cl)c3)Oc3cc2cc(c3O[C@@H]2O[C@H](CO)[C@@H](O)[C@H](O)[C@H]2O[C@H]2C[C@](C)(NCc3ccc(-c4ccc(Cl)cc4)cc3)[C@H](O)[C@H](C)O2)Oc2ccc(cc2Cl)[C@H]1O,,"VRS2 VanA VRSA, mouse neutropenic thigh infection, thigh","subcutaneous, 50 or 100 mg/kg once at 2 h, 26 h",,reduction of bacterial count,≥ 2 log10 CFU/g
CCc1ccn2c(C(=O)N(C)C)c(C)nc2c1,microbial growth,SG511,"2 mM, 20 h",,inhibition zone,0 mm
